Measurements gathered from unrelated publications.
Compare with care: the assays were run in different laboratories. “And” joins repeats or separate records; there may be more than shown. ± marks the error that the study gave. Values after ≈ are worked out from the molar mass of the structure shown.

The Cmax of `CN1CCC[C@H](CN2c3ccccc3Sc3ccccc32)C1.Cl` is reported as 421 ng/mL (female Wistar rats, plasma; oral, 16 mg/kg single dose).
For `N#Cc1ccc2c(c1)[C@H]1CCCN(C(=O)c3ccc4[nH]cnc4c3)[C@H]1C2`, “cortisol level change” read -140 nmol/L (human; 40 mg, day 7; reference: baseline).
`CCc1c(-c2ccccc2)c(-c2ccccc2)nn1-c1ccccc1-c1cccc(OCC(=O)O)c1` has an AUC(all) of 2390 ng·h/mL and 3090 ng·h/mL and 3250 ng·h/mL (Sprague-Dawley rat; intravenous, dose not given).
Under “patients with TEAEs grade ≥3”, `COc1cc2nccc(Oc3ccc(NC(=O)c4cc5c(n(-c6ccccc6)c4=O)CCCC5=O)nc3)c2cc1OC` is recorded as 95% (human, relapsed/refractory AML; oral, dose not given, CTCAE, all doses combined).
`Cn1cc(Nc2nccc(-c3ccc4c(c3)CN(C3COC3)CC[C@H]4NC(=O)c3cn(C(C)(C)C)nn3)n2)cn1` — result for “percent change from baseline”: -4.39% (measured: CD3+ T cell count; human, clinical trial, whole blood; 50 mg twice daily, follow-up).
Under “serum MCHC change”, `CCc1cc(C(=O)NC)c2nccc(N3CCc4c(cc(Cn5ccnc5)cc4-c4cn(C)nc4C(F)(F)F)C3=O)c2c1` is recorded as 0.08% (Sprague Dawley rats; oral, 100 mg/kg once daily, 7 days; reference: vehicle).
`CCN1/C(=C/C(C)=O)Sc2ccc(F)cc21`: “systolic blood pressure change” 104 ± 5.8% (cynomolgus monkey; oral, 10 mg/kg, 2 h post-dose; reference: pre-dose).
With `CSc1ccccc1C(=O)NCCn1cc(C(=O)NCc2cccc(C)n2)c(=O)c2cc3c(cc21)OC(F)(F)O3` the Cmax was 278 ± 40.8 ng/mL (Sprague-Dawley rat, male, plasma; intravenous, 5 mg/kg of parent drug).
`O=C1NCCc2nc(OCc3cccc(F)c3)ccc21`: “Irwin test score” 0 (measured: tail pinch; Sprague-Dawley rat male; oral, 100 mg/kg, 30 min; direction not given).
For `CC1(C)C(/C=C/C2=C(Cl)C(=C/C=C3\N(CCCCCC(=O)O)c4ccccc4C3(C)C)/CCC2)=[N+](CCCCCC(=O)O)c2ccccc21`, “molar absorption coefficient” read 232000 M⁻¹ cm⁻¹ (methanol).
For `c1ccc(-c2nc(N3CCC(c4ccccn4)C3)c3ccccc3n2)nc1` (centres unmarked), the kinetic solubility was 80 µg/mL (≈ 226 µM) (Japanese Pharmacopoeia disintegration test solution 2; pH 6.8).
With `NC[C@H](NC(=O)c1ccc(-c2ccc(Br)cc2)cc1)C(=O)NO` the thermodynamic solubility was < 7.14 µM (aqueous buffer; pH 7.4).
For `C[C@@H](NC(=O)N1C(=O)[C@H](Cc2ccnc(N)c2)[C@H]1C(=O)O)C1CCCCC1`, the Vd was 0.677 L/kg (UPLC-MS/MS; healthy adult Chinese volunteers, plasma; continuous intravenous infusion, 1.5 mg/kg/h, day 6 of 5-day infusion, mean).
`COc1ccc([C@@H](O)c2cc(-c3ncnc4cc(N5CCOCC5)ccc34)c(F)cc2Cl)nn1` — result for “incidence of proctalgia TEAE”: 50% (locally advanced rectal cancer; oral, 100 mg, with: capecitabine and radiotherapy).
`O=C(N[C@H](Cc1c[nH]c2ccccc12)C(=O)Nc1ccncc1)c1ccc(-c2ccc(F)c(C(F)(F)F)c2)cc1F` gave a concentration of 108 µM (Swiss Webster mouse, female, intestine; oral, 50 mg/kg, 2 h, 20% HPβCD vehicle).
For `CCCC1CCC(c2ccc(OCC)c(F)c2F)CC1` (centres unmarked), “median placental accumulation” read 2.31 ng/g (rat, placenta; 10 ng/mL in perfusate, low dose, mixture of 21 LCMs).
Under “treatment-emergent adverse events”, `O=C(Nc1nc2cccc(-c3ccc(CN4CCS(=O)(=O)CC4)cc3)n2n1)C1CC1` is recorded as 0% (measured: pyrexia; rheumatoid arthritis patients; oral, 150 mg once daily, 4 weeks, any relatedness).
`CC(C)C[C@H](NC(=O)[C@@H](Cc1c[nH]c2ccccc12)NC(=O)[C@H](Cc1ccc(O)cc1)NC(=O)[C@H](CO)NC(=O)[C@H](Cc1c[nH]c2ccccc12)NC(=O)[C@H](Cc1c[nH]cn1)NC(=O)[C@@H]1CCC(=O)N1)C(=O)N[C@@H](CCCNC(=N)N)C(=O)N1CCC[C@H]1C(=O)NCC(N)=O` — result for “patients, grade ≥3 TEAEs”: 0% (Chinese CPP children, boys; intramuscular, 22.5 mg, 12 months, day 1, month 6).
`O=C1CCc2ccc(OCCCCN3CCN(c4cccc(Cl)c4Cl)CC3)cc2N1`: “adverse event incidence” 3.6% (measured: Rigidity; patients, CYP2D6 normal metabolizers; dose not given, long-acting oral or depot).
`CNC(=O)c1ccc(-c2cnc3ncc(Cc4ccc5ncccc5c4)n3n2)cc1F`: “subjects with adverse events” 42.3% (measured: adverse events of grade 1 or higher; healthy human subjects; oral, 400 mg, induction cohort, all-causality, with: rifampicin 600 mg/day).

Some of these lines once more:
With `CSc1ccccc1C(=O)NCCn1cc(C(=O)NCc2cccc(C)n2)c(=O)c2cc3c(cc21)OC(F)(F)O3` the Cmax was 278 ± 40.8 ng/mL (Sprague-Dawley rat, male, plasma; intravenous, 5 mg/kg of parent drug).
`O=C1NCCc2nc(OCc3cccc(F)c3)ccc21`: “Irwin test score” 0 (measured: tail pinch; Sprague-Dawley rat male; oral, 100 mg/kg, 30 min; direction not given).
